Measurements gathered from unrelated publications.
Lines come from different studies, so protocols differ.

Cc1nccc2c3ccccc3n(Cc3cccnc3)c12 — LD50 (Kunming mouse; oral, single dose): 1120 to 2020 mg/kg
Cc1cc(/C=C/C#N)cc(C)c1Oc1nc(NC2CCN(Cc3ccc(S(C)(=O)=O)cc3)CC2)nc2ncccc12 — LD50 (Kunming mouse; oral, 800 mg/kg, single dose): > 800 mg/kg
CCCCn1c2ccccc2c2ccnc(-c3ccc(OC)cc3)c21 — LD50 (Kunming mouse; oral, single dose): 870 to 1430 mg/kg
C=C(C)C12OC3(c4ccccc4)OC1C1C(O)C(Br)(CO)C(O)C4(O)C(=O)C(C)=CC4C1(O3)C(C)C2OC(=O)c1ccccc1 (centres unmarked) — LD50 (Kunming mouse; intraperitoneal, single dose): > 100 mg/kg
CC(=O)CC(=O)C1C[C@H](O)CCC1=O (some centres unmarked) — LD50 (mouse; oral, single dose): 2710 mg/kg
Cc1cc(/C=C/C#N)cc(C)c1Oc1nc(NC2CCN(Cc3ccc(P(C)(C)=O)cc3)CC2)nc2ccsc12 — LD50 (Kunming mouse; oral, 2000 mg/kg): > 2000 mg/kg
CC[C@H](C)[C@H](NC(=O)[C@H](C)NC(=O)[C@H](CCCCN)NC(=O)[C@H](CC(C)C)NC(=O)[C@@H](N)Cc1ccccc1)C(=O)N[C@@H](CCCCN)C(=O)N[C@@H](CCCCN)C(=O)N[C@@H](Cc1ccccc1)C(=O)NCC(=O)N[C@@H](CCCCN)C(=O)N[C@@H](CCC(=O)O)C(=O)N[C@@H](Cc1ccccc1)C(=O)N[C@@H](CCCCN)C(=O)N[C@@H](CCCCN)C(=O)N[C@H](C(=O)NCC(=O)N[C@@H](C)C(=O)N[C@@H](CCCCN)C(=O)N[C@@H](CC(C)C)C(=O)N[C@@H](CCCCN)C(=O)O)[C@@H](C)CC — LD50 (BALB/c mouse; intraperitoneal, single dose): 150 mg/kg
C=CC(=O)Nc1cccc(Cn2ncc3cnc(Nc4cnn(CCOC)c4)nc32)c1 — LD50 (CD-1 mouse; oral, 2 g/kg, single dose): > 2000 mg/kg

Some of these lines once more:
Cc1cc(/C=C/C#N)cc(C)c1Oc1nc(NC2CCN(Cc3ccc(P(C)(C)=O)cc3)CC2)nc2ccsc12 — LD50 (Kunming mouse; oral, 2000 mg/kg): > 2000 mg/kg
